Experimental data of several laboratories.
Every numbered part comes from another study and shows a few of its results, in no order. Substitutions count along the parent as printed.

Block 1 — technique: protein-binding microarray; molecule type: double-stranded DNA, one strand shown; matrix: in vitro; concentration: 2200 nM top; setting: 60-bp whole probe; with: salmon DNA 0.4 mg/ml; relative to: random background probes; reading: higher = stronger binding; measurement: fitted relative affinity; shared flanks, not repeated: GCCTAGCAC … GTCTTGATTCGCTTGACGCTGCTG
Target: Interferon regulatory factor 7, full length, phosphomimetic (IRF7, Homo sapiens, UniProt Q92985, residues 1-503, S471D/S472D/S475D/S476D/S477D/S483D/S484D/S487D)
Target sequence (chain): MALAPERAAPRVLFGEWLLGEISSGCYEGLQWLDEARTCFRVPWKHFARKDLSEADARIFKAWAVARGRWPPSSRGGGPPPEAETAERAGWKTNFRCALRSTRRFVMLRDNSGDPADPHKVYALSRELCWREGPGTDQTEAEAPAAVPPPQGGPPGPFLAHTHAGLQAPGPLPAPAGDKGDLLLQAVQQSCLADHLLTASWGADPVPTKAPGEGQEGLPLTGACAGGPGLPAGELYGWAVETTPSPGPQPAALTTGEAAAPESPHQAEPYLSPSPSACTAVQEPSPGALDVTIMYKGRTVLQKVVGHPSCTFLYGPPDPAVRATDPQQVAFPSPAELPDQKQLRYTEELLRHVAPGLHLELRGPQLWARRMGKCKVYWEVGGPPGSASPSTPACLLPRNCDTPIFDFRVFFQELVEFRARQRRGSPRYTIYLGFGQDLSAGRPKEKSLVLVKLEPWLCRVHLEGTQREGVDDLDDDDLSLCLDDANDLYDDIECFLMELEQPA
TCAGTTTTGAGCTCTGTCACTGTGCTA: 1.45 z-score
GACGGTCTCCTTATCCTCACGTGCTAG: 1.23 z-score
TCATTTTTCTAAACCATACTGTGCTAG: 1.96 z-score
CATTATATTTTAATCACATAGTGCTAG: 0.555 z-score
TTAGATATCAGTTTCGATTCGTGCTAG: 11.4 z-score
GACTGTTCCGGTTTCGGGACGTGCTAG: 5.11 z-score
TCAAAATTATCTTTAATACTGTGCTAG: -0.683 z-score
GACGGACTGGACTTTCAGGACGTGCTA: -0.112 z-score

Block 2 — target: CCNA1, cyclin fold, Cln2 fusion (human); technique: yeast growth competition, sequencing; matrix: yeast; setting: weak parent motif; relative to: not given; reading: higher = stronger binding; measurement: normalised enrichment score
Starting sequence: PKN2 docking peptide (human); VSAVRKLDFSDTM; partner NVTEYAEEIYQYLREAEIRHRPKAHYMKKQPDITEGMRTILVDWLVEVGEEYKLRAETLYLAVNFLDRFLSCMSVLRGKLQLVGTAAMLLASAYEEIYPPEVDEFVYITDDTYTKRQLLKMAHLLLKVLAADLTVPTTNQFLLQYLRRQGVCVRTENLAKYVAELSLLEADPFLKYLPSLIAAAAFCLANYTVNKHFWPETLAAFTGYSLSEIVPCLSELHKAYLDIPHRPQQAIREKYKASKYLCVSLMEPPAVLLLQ
VSAVTKLDFSDTM [R5T]: 0.0554
VVAVRKLDFSDTM [S2V]: 0.583
VSAVRKADFSDTM [L7A]: 0.265
VKAVRKLDFSDTM [S2K]: 0.968
VSAVRKLDFSFTM [D11F]: 0.0797
VSKVRKLDFSDTM [A3K]: 0.328
VGAVRKLDFSDTM [S2G]: 1.11
VSAVRKLDFRDTM [S10R]: 0.492
VSAVRKLDFADTM [S10A]: 0.904
VSAVKKLDFSDTM [R5K]: 0.338

Block 3 — technique: DHFR PCA, dose-response; matrix: yeast; setting: Hill fit, mean, not affinity; with: (+)-ABA, dose series; reading: lower = more sensitive; measurement: ABA EC50
Target: ABI1, truncated, D143A, DHFR fusion (Arabidopsis thaliana, UniProt P49597)
Starting sequence: PYL1, truncated, DHFR fusion (Arabidopsis thaliana, UniProt Q8VZS8); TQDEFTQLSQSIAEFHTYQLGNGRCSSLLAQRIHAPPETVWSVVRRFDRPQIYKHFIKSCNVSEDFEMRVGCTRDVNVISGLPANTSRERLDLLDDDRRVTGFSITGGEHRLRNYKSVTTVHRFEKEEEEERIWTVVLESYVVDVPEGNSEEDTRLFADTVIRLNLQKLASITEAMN
R163W: 87.7 µM
V118I: 2.3 µM
Y53S: 194 µM
D65M: 8.66 µM
T135S: 2.51 µM
R99N: 14.9 µM
R90T: 6.34 µM
T73V: 1.45 µM
K58S: 3.13 µM
I52C: 4.63 µM
I33L: 189 µM

Other studies, line by line
PhoQ, residues 284 288 289 292 302 303 SSTLSG
fold induction (PhoP, residues 12 14 15 18 19 NMSFL (Escherichia coli, UniProt P23836); Sort-seq, refers to: YFP reporter; E. coli; PhoQ-PhoP variant library, with: 10 µM Mg2+; relative to: high Mg2+ state, higher = stronger signaling): 12

Some of these lines once more (block 1):
CATTATATTTTAATCACATAGTGCTAG: 0.555 z-score
TTAGATATCAGTTTCGATTCGTGCTAG: 11.4 z-score
GACTGTTCCGGTTTCGGGACGTGCTAG: 5.11 z-score
TCAAAATTATCTTTAATACTGTGCTAG: -0.683 z-score
